Measured values collected from several papers.
A part holds a random share of what one study measured. Changes are numbered by the printed parent chain.

Block 1 — technique: RNA Bind-n-Seq; molecule type: RNA; medium: in vitro; concentration: 365 nM; baseline: no-protein control; direction: higher = stronger binding
Target: RNA binding protein fox-1 homolog 2, RRM domain, GST-SBP tag (RBFOX2, Homo sapiens, UniProt O43251-10, residues 100-194)
Notes: natural RNA segment, single round, ends assumed
Constant ends, left off below: GGGAGUUCUACAGUCCGACGAUC … UGGAAUUCUCGGGUGCCAA
Target sequence (chain): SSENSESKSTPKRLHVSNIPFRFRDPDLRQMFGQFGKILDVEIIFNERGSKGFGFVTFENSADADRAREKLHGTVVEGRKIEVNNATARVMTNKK
Sequence | RBNS enrichment (R)
UCCUUGUGAAAUUCUGCUGAUUGUGCCCUACCCUUUGCACCUGACUUUUCCUAGUUGUCCUGGUGCUAAAAUGGAAGCUACACCUUGAUCUCUCCUGGCAUGAAAAUAAA | 1.25
GGACUACUUUCUCCACUAUGAAGAUGACUUGGAAAUCGCAACAUCAUGGUACAUUGCUAAGUCCAUGCUUGUGUGUGUGACAGUAGGCUUGAUAAUUUAUCUUAAAACAC | 0.676
UUAAAAAUAAGACGUCCUUCAAAAUGUCUUUUAGUAUCAAUUAAGUUUGUGCAUGAUUGUUUUUAUAUUUCUCAUCAACUACACAACUUUUCCAAGUUAUAAAGUCUACU | 0.617
UCCCAAGCCCGAGCAGAGGGUCAUGCGGGCCCCACAGGAGAAGCGGCCAGGGCCCGCGGGGGGCACCACCUGUGGACAGCCCUCCUGUCCCCAAGCUUUCAGGCAGGCAC | 0.185
CCGUCCUAAACACUUCCUAGCUCCCGGGACUGGGGGGUUUGUCUGGCAUAGCCAUGCUGGUAGCAAGAGAGAAAAAAUCAACAGCAAACAAAACCACACAAACCAAACCG | 0.502
GUCCCUUUCCCUUUAUAUUUGAGAUGAGGUCUAGAUAUGUAGUCCUGCCUGGCCUCCAAUUUGUAAUCCUCCUGCCUCAGCCUUGAGUGCUGGAAUUGAGUGUGUGCCAC | 0.411
GAACAAGCCUCUGUGAAUAUUUUCAUCUGUAUAAAUGCACAUCACAAAUUAAAAUCUGAUUCUUUUCGUUUGGUUGUUUUAUUUUAAAGGGGGUAGGUGGAUGAAGGGGC | 0.782
AUGAAUCUUUCAUAUAUAUAUGCAUAUAUAUACAUAUAUUGUAGAGUGUGAAUAUUCUUAUUUAAAGUAUAUUUUUACAUUAUGCAAAUGAACUUUAACAUUUUAGUCCA | 0.402
ACUGAAUAUUAUACAUUAUUGUAACAUGAACCUAAAAUUAAUUUAACAGGGCCCAAAUUCAUAGGAAUGUAACAGUCAUUGAAAGCCUAUUCUUUUCACCUCUCAUCACA | 0.362
AAUGUUAGUUUGGAUAAAAAUAAUUAGCAUUUAGUAAUUGCCUUGUUUCUGAGUUUAGCCUAUAUAAACAUACUAUAUGUGCCCAGAGGUCUACAGUCACCCUUUUUUAU | 1.91

Block 2 — technique: protein binding microarray; molecule type: double-stranded DNA, one strand shown; medium: in vitro; concentration: not given; baseline: not given; direction: higher = stronger binding
Target: Histone acetyltransferase KAT6A, both winged helices, GST fusion (KAT6A, Homo sapiens, UniProt Q92794, residues 1-181)
Notes: 8-mer, flanks averaged, mean of 2 arrays, mostly near background
Residues (chain): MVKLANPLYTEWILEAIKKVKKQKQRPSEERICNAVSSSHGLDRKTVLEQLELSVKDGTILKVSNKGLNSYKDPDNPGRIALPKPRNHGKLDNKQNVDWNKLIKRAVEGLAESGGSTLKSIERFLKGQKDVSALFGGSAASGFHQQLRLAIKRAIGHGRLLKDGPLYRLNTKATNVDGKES
Sequence | E-score
ACGGAACG | 0.238
ACGGCAGA | 0.219
AGCACACA | -0.254
GGAGACGA | 0.0423
CGTATTGA | 0.0456
TCTTTCCA | -0.107
GGCCGCAC | 0.167
ATATAAAA | -0.115
ACTGTGTC | -0.0359
AACGCACA | 0.0169

Block 3 — target: CCNB1, cyclin fold, Cln2 fusion (human); technique: yeast growth competition, sequencing; medium: yeast; notes: weak parent motif; baseline: not given; direction: higher = stronger binding
Starting sequence: CDKN1A docking peptide (human); SKACRRLFGPVDS
Change | normalised enrichment score
C4Q | 0.316
R6I | -0.0859
R6Y | 0.167
C4Y | -0.487
L7P | 0.0866

Mixed results
Substance | target | assay | test system | setting | how to read | measurement | result
PhoQ, residues 284 288 289 292 302 303 QWGLFV | PhoP, residues 12 14 15 18 19 NHFRA (Escherichia coli, UniProt P23836) | Sort-seq, refers to: YFP reporter | E. coli | PhoQ-PhoP variant library, with: 10 µM Mg2+ | baseline: high Mg2+ state, higher = stronger signaling | fold induction | 1.48

Repeated from above (block 1):
Sequence | RBNS enrichment (R)
CCGUCCUAAACACUUCCUAGCUCCCGGGACUGGGGGGUUUGUCUGGCAUAGCCAUGCUGGUAGCAAGAGAGAAAAAAUCAACAGCAAACAAAACCACACAAACCAAACCG | 0.502
AUGAAUCUUUCAUAUAUAUAUGCAUAUAUAUACAUAUAUUGUAGAGUGUGAAUAUUCUUAUUUAAAGUAUAUUUUUACAUUAUGCAAAUGAACUUUAACAUUUUAGUCCA | 0.402
UUAAAAAUAAGACGUCCUUCAAAAUGUCUUUUAGUAUCAAUUAAGUUUGUGCAUGAUUGUUUUUAUAUUUCUCAUCAACUACACAACUUUUCCAAGUUAUAAAGUCUACU | 0.617
UCCUUGUGAAAUUCUGCUGAUUGUGCCCUACCCUUUGCACCUGACUUUUCCUAGUUGUCCUGGUGCUAAAAUGGAAGCUACACCUUGAUCUCUCCUGGCAUGAAAAUAAA | 1.25
